Experimental data of several laboratories.
Numbers after ± are the reported error.
Target: Cytoplasmic tyrosine-protein kinase BMX (BMX, Homo sapiens, UniProt P51813)
One construct used (P51813 1-675): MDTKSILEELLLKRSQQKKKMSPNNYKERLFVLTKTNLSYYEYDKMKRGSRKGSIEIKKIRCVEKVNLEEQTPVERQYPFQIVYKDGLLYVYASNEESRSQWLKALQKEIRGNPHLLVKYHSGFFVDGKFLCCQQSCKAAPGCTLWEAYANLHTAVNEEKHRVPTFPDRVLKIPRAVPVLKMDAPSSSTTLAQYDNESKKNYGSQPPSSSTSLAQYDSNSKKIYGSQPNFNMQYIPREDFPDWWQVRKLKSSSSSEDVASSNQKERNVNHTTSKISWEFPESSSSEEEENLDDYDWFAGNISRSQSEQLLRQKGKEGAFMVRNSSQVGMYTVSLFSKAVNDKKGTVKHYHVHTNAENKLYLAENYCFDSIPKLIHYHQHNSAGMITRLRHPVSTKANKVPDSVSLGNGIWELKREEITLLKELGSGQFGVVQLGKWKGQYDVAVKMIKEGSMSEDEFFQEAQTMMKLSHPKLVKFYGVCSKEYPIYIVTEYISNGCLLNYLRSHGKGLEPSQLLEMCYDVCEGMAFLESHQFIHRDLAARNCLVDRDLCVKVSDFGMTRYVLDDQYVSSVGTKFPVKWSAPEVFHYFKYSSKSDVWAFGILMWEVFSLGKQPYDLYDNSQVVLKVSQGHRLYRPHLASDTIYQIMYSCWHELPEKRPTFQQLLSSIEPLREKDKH

CNc1ncc2c(/C=C/C(=O)N3CCC(OC)CC3)nn(Cc3cccc(C(F)(F)F)c3)c2n1 — remaining activity (kinase activity, inhibitor; 1 µM; relative to: untreated control): 106%
[2H]c1cc(C)c(NC(=O)c2cnc(Nc3cc(N4CCCCC4)nc(C)n3)s2)c(Cl)c1 — inhibition (0.01 µM): > 90%
CC(C)(C=C(C#N)C(=O)N1CCC[C@H]1Cn1nc(-c2ccc(Oc3ccccc3)cc2F)c2c(N)ncnc21)N1CCOCC1 — residence time (fluorescence competition): 780 ± 240 min
O=C(NC1CCC1)c1ccc2nc(-c3cccc(NS(=O)(=O)NCCN4CCCCC4)c3)cn2c1 — remaining activity (enzyme activity; 10 µM): 87%
N#C/C(=C\C1CC1)C(=O)N1CCC[C@@H]1Cn1nc(-c2ccc(Oc3ccccc3)cc2F)c2c(N)ncnc21 — residence time (fluorescence competition): 480 ± 126 min
COc1cc(F)ccc1-c1ncnc(Nc2cccc(C[S@](C)(=N)=O)c2)n1 — remaining activity (kinase activity; 10 µM, together with: 10 µM ATP): 36%
C=CC(=O)N1CCC(COCC(=O)N2CCN(c3nc(-c4cnc(N)nc4C(F)F)nc(N4CCOC[C@@H]4C)n3)CC2)CC1 — remaining binding (KINOMEscan; 1 µM): 96%
Cc1nc(Nc2ncc(C(=O)Nc3c(C)cccc3Cl)s2)cc(N2CC[C@H](O)C2)n1 — inhibition (0.001 µM): 77%
